Measured values gathered from unrelated publications.
Several values in a cell are separate wells, animals, samples, runs or records. Numbers after ± are the reported error.
TPI1 Y208F: TPI1 (Saccharomyces cerevisiae, UniProt P00942, Y208F)
Sequence of UniProt Q8WZ82 (whole entry, looked up): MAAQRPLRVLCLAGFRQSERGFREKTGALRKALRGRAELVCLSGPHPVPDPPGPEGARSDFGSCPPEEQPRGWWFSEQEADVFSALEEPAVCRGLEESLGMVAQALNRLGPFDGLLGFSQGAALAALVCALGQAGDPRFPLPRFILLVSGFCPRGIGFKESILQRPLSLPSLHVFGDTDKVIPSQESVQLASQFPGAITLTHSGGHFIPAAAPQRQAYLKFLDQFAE
Sequence of UniProt P00942 (whole entry, unmodified, looked up): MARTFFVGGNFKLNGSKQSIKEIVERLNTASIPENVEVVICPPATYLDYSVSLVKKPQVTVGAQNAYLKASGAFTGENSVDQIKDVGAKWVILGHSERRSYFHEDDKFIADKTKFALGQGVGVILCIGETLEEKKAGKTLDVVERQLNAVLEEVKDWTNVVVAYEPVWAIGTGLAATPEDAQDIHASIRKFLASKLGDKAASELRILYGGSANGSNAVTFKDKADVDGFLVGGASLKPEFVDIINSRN
Sequence of UniProt Q62351 (whole entry, looked up): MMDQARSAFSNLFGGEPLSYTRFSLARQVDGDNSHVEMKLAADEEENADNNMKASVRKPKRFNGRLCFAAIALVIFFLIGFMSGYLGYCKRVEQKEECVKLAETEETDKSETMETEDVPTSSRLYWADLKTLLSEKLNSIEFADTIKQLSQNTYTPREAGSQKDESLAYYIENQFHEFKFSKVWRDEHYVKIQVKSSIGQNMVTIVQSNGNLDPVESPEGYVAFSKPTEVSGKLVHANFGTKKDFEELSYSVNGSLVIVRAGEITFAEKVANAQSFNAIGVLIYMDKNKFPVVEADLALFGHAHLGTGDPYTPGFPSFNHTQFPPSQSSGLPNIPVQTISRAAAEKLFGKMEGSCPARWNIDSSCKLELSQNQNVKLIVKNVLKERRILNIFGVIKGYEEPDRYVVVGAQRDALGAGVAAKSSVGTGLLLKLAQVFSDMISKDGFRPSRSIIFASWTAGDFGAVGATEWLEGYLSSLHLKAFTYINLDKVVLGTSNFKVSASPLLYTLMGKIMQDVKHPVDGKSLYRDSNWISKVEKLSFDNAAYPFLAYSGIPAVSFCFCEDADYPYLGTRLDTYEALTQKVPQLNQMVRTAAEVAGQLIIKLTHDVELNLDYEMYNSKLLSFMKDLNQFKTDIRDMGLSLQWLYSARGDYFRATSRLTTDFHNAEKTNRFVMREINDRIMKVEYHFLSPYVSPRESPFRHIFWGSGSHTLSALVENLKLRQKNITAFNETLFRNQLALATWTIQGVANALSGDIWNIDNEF
Sequence of UniProt P12763 (whole entry, unmodified, looked up): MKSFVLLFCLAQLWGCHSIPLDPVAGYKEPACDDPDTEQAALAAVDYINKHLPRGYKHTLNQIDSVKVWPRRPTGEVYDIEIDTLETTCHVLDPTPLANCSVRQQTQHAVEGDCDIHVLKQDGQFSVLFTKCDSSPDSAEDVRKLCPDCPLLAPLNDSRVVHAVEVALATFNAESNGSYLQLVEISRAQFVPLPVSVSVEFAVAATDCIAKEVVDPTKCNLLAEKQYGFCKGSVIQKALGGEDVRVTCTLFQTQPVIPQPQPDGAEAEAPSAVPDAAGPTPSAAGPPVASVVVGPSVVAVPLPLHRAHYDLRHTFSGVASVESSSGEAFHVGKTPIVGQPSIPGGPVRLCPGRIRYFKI
Sequence of UniProt Q9Y6W6 (whole entry, looked up): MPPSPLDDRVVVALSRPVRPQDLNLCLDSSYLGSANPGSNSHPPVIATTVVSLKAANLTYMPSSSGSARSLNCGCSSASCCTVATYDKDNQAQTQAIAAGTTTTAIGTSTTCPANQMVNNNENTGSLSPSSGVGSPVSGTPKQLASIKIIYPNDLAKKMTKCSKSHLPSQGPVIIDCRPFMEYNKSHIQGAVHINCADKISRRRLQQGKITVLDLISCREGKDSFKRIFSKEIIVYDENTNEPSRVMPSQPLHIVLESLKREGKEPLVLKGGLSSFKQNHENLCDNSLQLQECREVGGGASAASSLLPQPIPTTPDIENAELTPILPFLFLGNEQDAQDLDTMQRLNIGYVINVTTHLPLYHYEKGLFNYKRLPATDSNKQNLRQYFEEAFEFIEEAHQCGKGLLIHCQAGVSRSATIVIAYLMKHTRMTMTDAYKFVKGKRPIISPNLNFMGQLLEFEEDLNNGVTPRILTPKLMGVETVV
Sequence of UniProt Q9NWT6 (whole entry, unmodified, looked up): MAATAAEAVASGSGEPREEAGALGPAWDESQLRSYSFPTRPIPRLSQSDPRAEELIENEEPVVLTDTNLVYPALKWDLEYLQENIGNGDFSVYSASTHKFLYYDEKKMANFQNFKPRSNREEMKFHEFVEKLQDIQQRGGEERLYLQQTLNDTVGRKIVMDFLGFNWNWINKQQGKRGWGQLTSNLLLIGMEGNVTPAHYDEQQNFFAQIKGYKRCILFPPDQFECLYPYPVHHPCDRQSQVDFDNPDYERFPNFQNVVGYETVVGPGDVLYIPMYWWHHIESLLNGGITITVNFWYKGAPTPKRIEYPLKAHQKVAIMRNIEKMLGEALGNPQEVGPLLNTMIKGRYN
Sequence of UniProt O42275 (whole entry, looked up): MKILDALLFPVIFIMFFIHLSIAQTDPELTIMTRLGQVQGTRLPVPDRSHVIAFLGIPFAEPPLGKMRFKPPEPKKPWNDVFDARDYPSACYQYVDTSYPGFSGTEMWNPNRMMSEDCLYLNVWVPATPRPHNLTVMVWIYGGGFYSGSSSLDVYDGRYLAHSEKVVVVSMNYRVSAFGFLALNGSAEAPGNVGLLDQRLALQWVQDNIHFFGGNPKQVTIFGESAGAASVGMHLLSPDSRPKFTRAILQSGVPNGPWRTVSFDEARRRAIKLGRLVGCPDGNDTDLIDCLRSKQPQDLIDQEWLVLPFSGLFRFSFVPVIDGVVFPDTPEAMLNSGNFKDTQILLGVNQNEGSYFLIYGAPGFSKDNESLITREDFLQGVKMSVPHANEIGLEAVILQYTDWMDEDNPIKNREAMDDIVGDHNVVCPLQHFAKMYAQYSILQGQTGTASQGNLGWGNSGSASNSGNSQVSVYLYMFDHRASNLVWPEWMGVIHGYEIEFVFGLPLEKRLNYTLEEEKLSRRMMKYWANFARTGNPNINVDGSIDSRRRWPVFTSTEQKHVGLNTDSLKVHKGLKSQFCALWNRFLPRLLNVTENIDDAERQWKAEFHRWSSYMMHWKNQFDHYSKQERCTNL
Sequence of UniProt Q8DNB6 (whole entry, looked up): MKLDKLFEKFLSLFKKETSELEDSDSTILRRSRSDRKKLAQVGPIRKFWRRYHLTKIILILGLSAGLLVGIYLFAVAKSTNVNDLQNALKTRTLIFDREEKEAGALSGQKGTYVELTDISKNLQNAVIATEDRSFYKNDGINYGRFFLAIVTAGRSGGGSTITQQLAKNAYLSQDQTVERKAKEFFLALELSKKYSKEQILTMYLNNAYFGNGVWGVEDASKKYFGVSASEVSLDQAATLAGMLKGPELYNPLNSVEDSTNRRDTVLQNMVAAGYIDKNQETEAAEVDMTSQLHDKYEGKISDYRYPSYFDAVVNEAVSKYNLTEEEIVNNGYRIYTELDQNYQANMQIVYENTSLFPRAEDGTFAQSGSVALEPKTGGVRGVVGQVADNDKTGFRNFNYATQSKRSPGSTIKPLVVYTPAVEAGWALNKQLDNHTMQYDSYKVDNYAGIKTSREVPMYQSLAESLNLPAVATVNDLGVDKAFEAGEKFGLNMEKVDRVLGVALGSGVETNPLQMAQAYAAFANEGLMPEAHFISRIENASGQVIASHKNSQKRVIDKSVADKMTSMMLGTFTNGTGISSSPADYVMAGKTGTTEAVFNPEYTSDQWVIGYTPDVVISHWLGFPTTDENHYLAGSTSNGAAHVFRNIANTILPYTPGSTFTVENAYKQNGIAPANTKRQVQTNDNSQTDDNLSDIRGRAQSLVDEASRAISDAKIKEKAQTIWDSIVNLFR
Sequence of UniProt P0DW57 (whole entry, looked up): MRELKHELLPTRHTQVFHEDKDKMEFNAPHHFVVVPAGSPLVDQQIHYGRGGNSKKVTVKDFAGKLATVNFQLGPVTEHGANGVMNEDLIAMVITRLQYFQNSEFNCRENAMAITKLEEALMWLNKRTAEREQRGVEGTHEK
Sequence of UniProt Q96P69 (whole entry, looked up): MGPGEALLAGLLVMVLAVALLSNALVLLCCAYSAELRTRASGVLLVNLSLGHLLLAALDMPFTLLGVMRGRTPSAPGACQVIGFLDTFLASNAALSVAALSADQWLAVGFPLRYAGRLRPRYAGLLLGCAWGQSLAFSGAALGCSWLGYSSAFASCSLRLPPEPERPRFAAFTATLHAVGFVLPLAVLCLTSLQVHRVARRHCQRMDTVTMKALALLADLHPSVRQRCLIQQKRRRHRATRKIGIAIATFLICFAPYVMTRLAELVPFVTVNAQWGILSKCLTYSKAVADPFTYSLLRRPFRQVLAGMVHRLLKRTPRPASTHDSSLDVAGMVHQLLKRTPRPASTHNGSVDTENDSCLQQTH
Sequence of UniProt Q13133 (whole entry, looked up): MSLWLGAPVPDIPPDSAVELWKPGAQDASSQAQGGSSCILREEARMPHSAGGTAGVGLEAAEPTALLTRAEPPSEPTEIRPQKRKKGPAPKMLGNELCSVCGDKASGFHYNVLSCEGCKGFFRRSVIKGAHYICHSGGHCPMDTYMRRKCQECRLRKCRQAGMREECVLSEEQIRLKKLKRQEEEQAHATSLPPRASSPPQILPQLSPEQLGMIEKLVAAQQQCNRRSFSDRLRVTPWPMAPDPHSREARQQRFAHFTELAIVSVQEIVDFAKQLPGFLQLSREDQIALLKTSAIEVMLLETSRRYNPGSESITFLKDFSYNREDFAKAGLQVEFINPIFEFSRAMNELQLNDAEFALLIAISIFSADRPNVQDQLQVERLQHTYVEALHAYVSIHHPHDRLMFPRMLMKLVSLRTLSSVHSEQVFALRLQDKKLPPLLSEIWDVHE

| SMILES | target | test | test system | setting | scale | endpoint | value |
| --- | --- | --- | --- | --- | --- | --- | --- |
| CC(C)C[C@@H]1NC(=O)[C@H](C(C)C)NC(=O)CNC(=O)[C@H](CC(N)=O)NC(=O)[C@@H]2CCCN2C(=O)[C@H](Cc2ccc(O)cc2)NC(=O)[C@H](CCCNC(=N)N)NC(=O)[C@H](Cc2ccccc2)NC(=O)[C@@H](NC(=O)[C@H](CCCCN)NC(=O)[C@@H]2CCCN2C(=O)[C@H](CO)NC(=O)[C@H](C)NC(=O)[C@@H](N)Cc2ccc(O)cc2)CSSC[C@@H](C(=O)N[C@H](C(N)=O)[C@@H](C)O)NC(=O)[C@H](C)NC1=O | Alpha-2-HS-glycoprotein, asialo (AHSG, Bos taurus, UniProt P12763) | binding, isothermal titration calorimetry | – | pH 7.0, 25 °C, with: asialofetuin | – | -TΔS | -6.86 kJ/mol |
| O=c1onc2cnc3ccccc3n12 | GUCY1B1, with alpha-1 subunit (Homo sapiens, UniProt Q02153) | – | human cells | concentration not given, basal conditions | – | cGMP level | no effect |
| O=C(O)COP(=O)(O)O | TPI1 Y208F | enzyme activity, competitive inhibitor, GPDH/NADH-coupled | – | pH 4.9, 25 °C, ionic strength 0.1 NaCl, with: glyceraldehyde 3-phosphate substrate | baseline: mutant over wild type | Ki ratio | 9420 |
| COc1ccc(N2C(=O)N(c3c(C)cccc3Cl)Cc3cnc(Nc4ccc(C5CCN(C)CC5)cc4OC)nc32)nc1 | NEK9 (Homo sapiens, UniProt Q8TD19) | kinase activity | – | 0.5 µM | – | inhibition | 1.48% |
| O=C(Nc1cnccc1Cl)N1CCN(Cc2ccc3c(c2)OC(F)(F)O3)CC1 | GRM5 (Homo sapiens, UniProt P41594) | radioligand binding | – | 50 µM, with: [3H]quisqualic acid | – | inhibition of binding | 8% |
| CCCCC/C=C\C/C=C\C/C=C\C/C=C\CCCC(=O)NCCO | Trpv1 (Mus musculus, UniProt Q704Y3, S513T) | ion current, agonist, whole-cell patch clamp | – | S513T | – | Hill coefficient | 3.08 ± 0.37 |
| CCN(CC)CCCC[C@H](NC(=O)[C@H](CC(C)C)NC(=O)[C@H](C)NC(=O)[C@H](Cc1ccccc1)NC(=O)c1ccc(C(C)(C)C)cc1)C(=O)N[C@@H](CO)C(=O)OC | Transcription intermediary factor 1-alpha, bromodomain (TRIM24, Homo sapiens, UniProt O15164) | thermal stabilisation, thermal shift | – | 25 µM | baseline: protein without compound, higher = stronger binding | delta Tm | 0.27 °C |
| CC(C)(C)C(=O)CSc1ncc2c(n1)-c1ccccc1CC2 | Dual specificity protein phosphatase 10, catalytic domain (Homo sapiens, UniProt Q9Y6W6) | X-ray co-crystal structure | – | concentration not given | – | active site volume | 51.4 ± 1.5 Å³ |
| C[C@H]1COCCN1c1nc(NCc2cccnc2C(F)(F)F)c2cccnc2n1 | ADRB1 (Homo sapiens, UniProt P08588) | binding | – | CEREP panel | – | IC50 | > 100 µM |
| O=C[C@H](O)COP(=O)(O)O | TPI1 Y208F | substrate, GPDH/NADH-coupled | – | pH 4.9, 25 °C | – | Km | ~35 mM |
| COc1ccc(Nc2nn3c(-c4ccccc4)ccnc3c2C(=O)Nc2ccc(Cl)cc2)cc1 | α-glucosidase | SDS-PAGE | – | concentration not given, concentration equal to IC50 | – | decrease in α-glucosidase band quantity | 68.9% |
| COc1cc2nccc(Oc3ccc(NC(=O)c4cc5c(n(-c6ccccc6)c4=O)CCCC5=O)nc3)c2cc1OC | NTRK2 (Homo sapiens, UniProt Q16620) | cell viability, CellTiter-Glo | Ba/F3 expressing recombinant kinase | – | baseline: NTRK2 IC50 over AXL IC50 | selectivity ratio | 23 |
| O=C1NC(=O)[C@](CNC(=O)c2cnn(-c3ccccc3)n2)(C2CC2)N1 | F11 (Homo sapiens, UniProt P03951) | inhibitor | – | concentration not given | – | activity | inactive |
| CC1(C)S[C@@H]2[C@H](/N=C/N3CCCCCC3)C(=O)N2[C@H]1C(=O)O | Penicillin-binding protein 2a (pbp2a, Streptococcus pneumoniae, UniProt Q8DNB6) | inhibitor | – | – | – | kinact/KI | 62 ± 2.7 M⁻¹ s⁻¹ |
| O=C(c1ccc(Cl)cc1)N1CCN2C(=O)N(OC(=O)N3CCOc4ccccc43)C(=O)C2C1 (centres unmarked) | OVCA2 (Homo sapiens, UniProt Q8WZ82) | MS-based ABPP | SW-620 conditioned medium | 10 µM, 1 h, 37 °C | baseline: compound over DMSO, lower = more inhibition | peptide ratio | 0.9 and 1.04 and 0.98 and 0.86 |
| CC[C@@H](C)[C@@H](NC(=O)[C@@H](Cc1ccc(O)cc1)NC(=O)[C@H]1CCCN1C(=O)[C@@H](CCCNC(=N)N)NC(=O)[C@H](N)Cc1c[nH]cn1)C(=O)N[C@H](C)C(=O)N[C@H](Cc1c[nH]cn1)C(=O)N[C@H](CCCNC(=N)N)C(=O)N[C@H](CCCCNC(=O)c1cccc(S(=O)(=O)F)c1)C(=O)N[C@H](Cc1ccc(O)cc1)C(=O)N[C@H](CO)C(=O)N[C@H](Cc1ccccc1)C(N)=O | Transferrin receptor protein 1 (Tfrc, Mus musculus, UniProt Q62351) | flow cytometry | DC2.4 | 24 h, pH 7.4, unit not given | baseline: 0 h | surface expression | 0.565 and 0.576 |
| O=c1oc(-c2cccc(F)c2)ns1 | PSMB6 (Homo sapiens, UniProt P28072) | enzyme inactivation, inhibitor | human PA28-activated proteasome | – | – | kobs/[I] | 0.69 M⁻¹ s⁻¹ |
| Nc1ncnc2c1ncn2[C@@H]1O[C@H](COP(=O)(O)OP(=O)(O)NP(=O)(O)O)[C@@H](O)[C@H]1O | Cell cycle histidine kinase CckA, cytoplasmic region (Caulobacter vibrioides, UniProt Q9X688) | ITC | – | 12 °C, without c-di-GMP | – | -TΔS | -21.8 kJ/mol |

| SMILES | target | test | test system | setting | scale | endpoint | value |
| --- | --- | --- | --- | --- | --- | --- | --- |
| CN(C(=O)n1cnc(-c2ccc[n+]([O-])c2)c1)C1CCCCC1 | AGTR2 (Homo sapiens, UniProt P50052) | radioligand binding, inhibitor | – | 50 µM | – | inhibition | -5% |
| CO/N=C1\C[C@]2(C[C@@H]3C[C@@H](C/C=C(\C)C[C@@H](C)/C=C/C=C4\CO[C@@H]5[C@H](O)C(C)=C[C@@H](C(=O)O3)[C@]45O)O2)O[C@H](/C(C)=C/C(C)C)[C@H]1C | NR1H3 (Homo sapiens, UniProt Q13133) | coactivator recruitment | – | 0.4 µM | – | efficacy | 11.1 ± 5.3% |
| COc1cc(Nc2ncc(F)c(Nc3ccc4c(n3)NC(=O)C(C)(C)O4)n2)cc(OC)c1OC | PIP5K1C (Homo sapiens, UniProt O60331) | KINOMEscan | – | 10 µM | – | inhibition | 100% |
| CN1CCN(c2cc(-c3ccncc3)c(-c3ccc4ccccc4c3)nn2)CC1 | OXGR1 (Homo sapiens, UniProt Q96P68) | agonist, FLIPR | – | 12.5 µM | – | activation | 0.4% |
| CC(C)[C@@H](O)CC[C@@H](C)[C@H]1CC[C@H]2[C@@H]3CC=C4C[C@@H](O)CC[C@]4(C)[C@H]3CC[C@]12C | Glutamate NMDA receptor; GRIN1/GRIN2B (GRIN1/GRIN2B, Homo sapiens, UniProt Q05586+Q13224, F654A) | positive allosteric modulator, two-electrode voltage clamp | Xenopus oocytes expressing GluN1-F654A | 10 µM, 0.02% cremophor, with: 100 µM glutamate and glycine | baseline: without compound | current response | 149 ± 6.5% |
| CCCCCCCCCCCC(=O)N[C@H]1CCOC1=O | qscR (Pseudomonas aeruginosa, UniProt G3XD77) | ligand, differential scanning fluorimetry | – | ligand complex | – | melting temperature | 55.5 °C |
| Nc1ncnc2c1ncn2[C@@H]1O[C@H](COP(=O)(O)OP(=O)(O)OP(=O)(O)O)[C@@H](O)[C@H]1O | matB (Rhodopseudomonas palustris, UniProt Q6ND88, C106A/K488A/Q457C/R286C) | binding | – | pH 7.0, 50 mM Hepes, 50 mM NaCl | – | fluorescence ratio F+/F- | 3.4 |
| Cc1onc(-c2c(Cl)cccc2Cl)c1C(=O)N[C@@H]1C(=O)N2[C@@H]1SC(C)(C)[C@@H]2C(=O)O | Penicillin-binding protein 2X (Streptococcus pneumoniae R6, UniProt P59676) | inhibitor | Streptococcus pneumoniae | – | – | kinact/KI | 38000 ± 5200 M⁻¹ s⁻¹ |
| CCOC(=O)COc1ccc2c(=O)c3ccccc3oc2c1 | ache (Electrophorus electricus, UniProt O42275) | enzyme activity, inhibitor, Lineweaver-Burk plot | – | 0.84 µM | higher = faster reaction | Vmax | 0.0053 a.u. |
| [2H]c1c([2H])c([C@]2([2H])CCCN2C(=O)C(C)(C)Oc2ccc3cn[nH]c3c2)c([2H])c([2H])c1C([2H])([2H])[2H] | MAPK8 (Homo sapiens, UniProt P45983) | KINOMEscan | – | 1 µM | baseline: DMSO control | remaining binding | 83% |
| COc1cc(O)cc(/C=C/c2ccc(O)cc2)c1 | O-methyltransferase (Sorghum bicolor, UniProt A0A1B6PFV1) | ITC | – | with: SAH+ | – | -TΔS | 4.39 kJ/mol |
| CC[C@H](C)[C@@H]1NC(=O)[C@H](Cc2c[nH]c3ccccc23)NC(=O)[C@H](Cc2ccc(O)cc2)NC(=O)CSC[C@@H](C(N)=O)NC(=O)[C@H]([C@@H](C)O)NC(=O)[C@H](CO)NC(=O)[C@H](C(C)C)NC(=O)[C@H](Cc2ccc(O)cc2)NC(=O)[C@H](CCCNC(=N)N)NC(=O)[C@H](Cc2ccc(O)cc2)NC(=O)[C@H]([C@@H](C)O)NC(=O)[C@H]([C@@H](C)O)NC(=O)[C@H](Cc2c[nH]c3ccccc23)NC(=O)[C@H](CO)NC(=O)[C@H](CC(N)=O)NC(=O)[C@H](CO)NC1=O | Vacuolar protein sorting-associated protein 26A/Vacuolar protein sorting-associated protein 35, Vps35 residues 1–390 (Homo sapiens, UniProt O75436+Q96QK1) | ITC | – | 25 °C | – | ΔG | -38.49 ± 0.251 kJ/mol |
| O=C(O)CCC(=O)C(=O)O | HIF1AN (Homo sapiens, UniProt Q9NWT6, Y93A) | cosubstrate | – | tunnel mutant Y93A | – | KI over Km | ~20 fold |
| C[C@H]1CN(c2n[nH]c3nc(N[C@H]4CC[C@H](NS(=O)(=O)CCC(F)(F)F)CC4)ncc23)CCO1 | KHSRP (Homo sapiens, UniProt Q92945) | inhibitor, Kinobeads competition profiling | – | 0.8 µM | baseline: vehicle | relative abundance | 1.47 |
| CNC(C)Cc1ccc2nonc2c1 (centres unmarked) | HTR2C (Homo sapiens, UniProt P28335) | agonist | – | – | baseline: 5-HT | Emax | 71.9 ± 7% |
| Nc1ncnc2c1ncn2[C@@H]1O[C@@H]2COP(=O)(O)O[C@H]3[C@@H](O)[C@H](n4cnc5c(N)ncnc54)O[C@@H]3COP(=O)(O)O[C@H]3[C@@H](O)[C@H](n4cnc5c(N)ncnc54)O[C@@H]3COP(=O)(O)O[C@H]2[C@H]1O | Thoeris anti-defense 1 (tad1, Bacillus phage SBSphiJ7, UniProt P0DW57) | native gel and ITC | – | concentration not given | – | binding | binds |
| COc1cc(N)c(Cl)cc1C(=O)NC1CN2CCC1CC2 (centres unmarked) | G-protein coupled receptor 78 (GPR78, Homo sapiens, UniProt Q96P69) | β-arrestin recruitment, TANGO luminescence, measured: GPR78 | – | concentration not given | baseline: basal luminescence | log2 fold change | 0.157 |

Some of these lines once more:
| SMILES | target | test | test system | setting | scale | endpoint | value |
| --- | --- | --- | --- | --- | --- | --- | --- |
| COc1ccc(Nc2nn3c(-c4ccccc4)ccnc3c2C(=O)Nc2ccc(Cl)cc2)cc1 | α-glucosidase | SDS-PAGE | – | concentration not given, concentration equal to IC50 | – | decrease in α-glucosidase band quantity | 68.9% |
| CO/N=C1\C[C@]2(C[C@@H]3C[C@@H](C/C=C(\C)C[C@@H](C)/C=C/C=C4\CO[C@@H]5[C@H](O)C(C)=C[C@@H](C(=O)O3)[C@]45O)O2)O[C@H](/C(C)=C/C(C)C)[C@H]1C | NR1H3 (Homo sapiens, UniProt Q13133) | coactivator recruitment | – | 0.4 µM | – | efficacy | 11.1 ± 5.3% |
| CC[C@H](C)[C@@H]1NC(=O)[C@H](Cc2c[nH]c3ccccc23)NC(=O)[C@H](Cc2ccc(O)cc2)NC(=O)CSC[C@@H](C(N)=O)NC(=O)[C@H]([C@@H](C)O)NC(=O)[C@H](CO)NC(=O)[C@H](C(C)C)NC(=O)[C@H](Cc2ccc(O)cc2)NC(=O)[C@H](CCCNC(=N)N)NC(=O)[C@H](Cc2ccc(O)cc2)NC(=O)[C@H]([C@@H](C)O)NC(=O)[C@H]([C@@H](C)O)NC(=O)[C@H](Cc2c[nH]c3ccccc23)NC(=O)[C@H](CO)NC(=O)[C@H](CC(N)=O)NC(=O)[C@H](CO)NC1=O | Vacuolar protein sorting-associated protein 26A/Vacuolar protein sorting-associated protein 35, Vps35 residues 1–390 (Homo sapiens, UniProt O75436+Q96QK1) | ITC | – | 25 °C | – | ΔG | -38.49 ± 0.251 kJ/mol |
| COc1cc(Nc2ncc(F)c(Nc3ccc4c(n3)NC(=O)C(C)(C)O4)n2)cc(OC)c1OC | PIP5K1C (Homo sapiens, UniProt O60331) | KINOMEscan | – | 10 µM | – | inhibition | 100% |
| O=C[C@H](O)COP(=O)(O)O | TPI1 Y208F | substrate, GPDH/NADH-coupled | – | pH 4.9, 25 °C | – | Km | ~35 mM |
